Published values collected from several papers.
Each line is one published result; not all experiments were run side by side. “And” joins repeats or separate records; there may be more than shown. Numbers after ± are the reported error. Where no end group is shown, it is not given here. No end group written: not given here. The star is where a group is joined.
CNR2: Cannabinoid receptor 2 (CNR2, Homo sapiens, UniProt P34972)
UniProt P34972, sequence (whole entry, looked up): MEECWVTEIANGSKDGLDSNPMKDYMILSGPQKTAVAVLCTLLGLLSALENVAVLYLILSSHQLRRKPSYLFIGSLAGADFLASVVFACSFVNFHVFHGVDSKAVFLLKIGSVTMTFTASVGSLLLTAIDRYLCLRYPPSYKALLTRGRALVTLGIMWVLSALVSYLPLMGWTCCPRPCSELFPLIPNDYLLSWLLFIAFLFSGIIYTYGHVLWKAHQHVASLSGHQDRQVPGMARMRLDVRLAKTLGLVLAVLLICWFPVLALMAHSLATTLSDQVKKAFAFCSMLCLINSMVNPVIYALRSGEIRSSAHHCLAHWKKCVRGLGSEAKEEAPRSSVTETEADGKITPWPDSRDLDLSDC
PIM1: Serine/threonine-protein kinase pim-1 (PIM1, Homo sapiens, UniProt P11309)
UniProt P11309, sequence (whole entry, looked up): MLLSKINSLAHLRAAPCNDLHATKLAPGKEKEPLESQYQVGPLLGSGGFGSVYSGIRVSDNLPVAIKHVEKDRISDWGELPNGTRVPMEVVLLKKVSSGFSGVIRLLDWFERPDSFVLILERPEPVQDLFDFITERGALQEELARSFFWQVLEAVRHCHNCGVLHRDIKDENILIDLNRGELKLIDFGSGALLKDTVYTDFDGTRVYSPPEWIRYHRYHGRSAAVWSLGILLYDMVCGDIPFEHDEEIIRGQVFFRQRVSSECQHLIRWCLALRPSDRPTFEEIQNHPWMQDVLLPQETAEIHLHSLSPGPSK
lasR: Transcriptional activator protein LasR (lasR, Pseudomonas aeruginosa, UniProt P25084)
Kelch domain-containing protein 2: Kelch domain-containing protein 2 (UniProt Q9Y2U9)
UniProt Q9Y2U9, sequence (whole entry, looked up): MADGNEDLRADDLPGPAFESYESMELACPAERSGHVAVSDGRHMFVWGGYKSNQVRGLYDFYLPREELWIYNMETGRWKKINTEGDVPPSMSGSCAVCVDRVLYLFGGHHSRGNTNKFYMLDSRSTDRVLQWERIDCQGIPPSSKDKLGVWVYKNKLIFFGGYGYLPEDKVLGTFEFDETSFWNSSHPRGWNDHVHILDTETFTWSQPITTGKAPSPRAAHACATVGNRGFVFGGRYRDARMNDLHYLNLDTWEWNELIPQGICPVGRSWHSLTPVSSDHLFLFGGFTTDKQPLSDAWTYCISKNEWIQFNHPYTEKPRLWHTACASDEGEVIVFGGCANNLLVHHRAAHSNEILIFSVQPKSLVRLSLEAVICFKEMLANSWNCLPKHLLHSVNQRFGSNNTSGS
ESR2: Estrogen receptor beta (ESR2, Homo sapiens, UniProt Q92731)
UniProt Q92731, sequence (whole entry, looked up): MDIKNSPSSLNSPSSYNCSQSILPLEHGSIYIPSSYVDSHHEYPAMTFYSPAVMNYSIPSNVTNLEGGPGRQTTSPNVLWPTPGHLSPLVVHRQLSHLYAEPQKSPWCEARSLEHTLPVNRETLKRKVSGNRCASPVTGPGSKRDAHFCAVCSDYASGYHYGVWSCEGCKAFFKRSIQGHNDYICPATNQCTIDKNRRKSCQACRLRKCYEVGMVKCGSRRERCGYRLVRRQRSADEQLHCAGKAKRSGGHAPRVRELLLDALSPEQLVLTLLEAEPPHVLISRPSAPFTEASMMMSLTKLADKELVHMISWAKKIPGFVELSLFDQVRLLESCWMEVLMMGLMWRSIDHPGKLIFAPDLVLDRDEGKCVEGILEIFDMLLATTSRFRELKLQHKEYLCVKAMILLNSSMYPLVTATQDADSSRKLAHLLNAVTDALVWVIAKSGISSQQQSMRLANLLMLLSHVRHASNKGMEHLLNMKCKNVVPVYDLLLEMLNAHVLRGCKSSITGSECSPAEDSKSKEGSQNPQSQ
ESR1: Estrogen receptor (ESR1, Homo sapiens, UniProt P03372)
UniProt P03372, sequence (whole entry, looked up): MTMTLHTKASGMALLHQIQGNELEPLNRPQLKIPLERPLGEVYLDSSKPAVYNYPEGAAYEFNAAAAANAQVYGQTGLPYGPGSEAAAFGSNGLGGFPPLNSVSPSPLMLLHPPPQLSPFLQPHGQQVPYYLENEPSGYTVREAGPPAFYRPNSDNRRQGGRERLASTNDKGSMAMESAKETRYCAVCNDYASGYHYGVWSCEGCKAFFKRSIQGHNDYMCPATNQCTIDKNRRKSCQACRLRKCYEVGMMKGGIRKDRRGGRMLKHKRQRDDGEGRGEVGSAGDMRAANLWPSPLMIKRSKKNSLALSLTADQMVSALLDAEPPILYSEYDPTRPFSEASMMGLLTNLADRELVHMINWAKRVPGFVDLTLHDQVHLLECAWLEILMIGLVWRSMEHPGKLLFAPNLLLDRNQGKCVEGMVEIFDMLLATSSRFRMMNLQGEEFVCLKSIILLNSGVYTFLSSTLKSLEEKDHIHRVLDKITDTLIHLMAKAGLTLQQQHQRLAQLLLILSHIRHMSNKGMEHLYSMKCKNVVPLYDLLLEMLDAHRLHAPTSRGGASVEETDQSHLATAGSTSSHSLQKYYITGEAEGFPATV
OPRM1: Mu-type opioid receptor (OPRM1, Homo sapiens, UniProt P35372)
UniProt P35372, sequence (whole entry, looked up): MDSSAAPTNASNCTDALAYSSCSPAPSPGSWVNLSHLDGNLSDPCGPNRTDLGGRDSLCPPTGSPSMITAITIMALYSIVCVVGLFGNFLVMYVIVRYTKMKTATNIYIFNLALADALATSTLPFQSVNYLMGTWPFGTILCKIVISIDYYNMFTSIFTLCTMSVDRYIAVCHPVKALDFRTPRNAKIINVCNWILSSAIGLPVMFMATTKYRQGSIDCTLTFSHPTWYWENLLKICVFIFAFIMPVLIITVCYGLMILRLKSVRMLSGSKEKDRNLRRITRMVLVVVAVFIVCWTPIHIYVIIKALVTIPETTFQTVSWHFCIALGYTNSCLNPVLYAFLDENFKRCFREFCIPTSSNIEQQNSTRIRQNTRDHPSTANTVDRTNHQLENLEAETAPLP
Aequorin-1 C152S/C159S/C187S: Aequorin-1 (Aequorea victoria, UniProt P07164, C152S/C159S/C187S)
UniProt P07164, sequence (whole entry, unmodified, looked up): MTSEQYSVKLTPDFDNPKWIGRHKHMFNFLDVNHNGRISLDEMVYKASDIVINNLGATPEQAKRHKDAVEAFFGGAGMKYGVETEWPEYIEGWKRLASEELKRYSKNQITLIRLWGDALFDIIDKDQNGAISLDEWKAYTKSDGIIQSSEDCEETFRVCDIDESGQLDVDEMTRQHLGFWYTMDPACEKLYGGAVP
UniProt P03962, sequence (whole entry, unmodified, looked up): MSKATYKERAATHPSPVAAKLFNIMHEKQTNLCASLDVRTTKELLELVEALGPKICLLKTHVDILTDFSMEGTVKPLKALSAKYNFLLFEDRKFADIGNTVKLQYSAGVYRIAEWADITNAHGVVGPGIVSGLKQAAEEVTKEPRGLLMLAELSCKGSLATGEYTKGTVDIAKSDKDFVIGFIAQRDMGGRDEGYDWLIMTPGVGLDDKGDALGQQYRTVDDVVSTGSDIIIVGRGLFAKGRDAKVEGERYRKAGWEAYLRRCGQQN
UniProt Q16690, sequence (whole entry, looked up): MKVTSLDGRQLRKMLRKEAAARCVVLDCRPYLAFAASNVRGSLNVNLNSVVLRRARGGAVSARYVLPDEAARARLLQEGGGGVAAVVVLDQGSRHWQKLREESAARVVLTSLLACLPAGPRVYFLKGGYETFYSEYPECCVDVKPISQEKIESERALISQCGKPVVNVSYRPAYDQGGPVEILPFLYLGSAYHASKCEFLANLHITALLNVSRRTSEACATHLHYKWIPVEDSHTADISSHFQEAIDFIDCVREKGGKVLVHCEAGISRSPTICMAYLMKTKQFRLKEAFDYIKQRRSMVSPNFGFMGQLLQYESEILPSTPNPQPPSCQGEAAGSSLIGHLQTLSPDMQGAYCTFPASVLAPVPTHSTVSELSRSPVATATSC
UniProt P41145, sequence (whole entry, looked up): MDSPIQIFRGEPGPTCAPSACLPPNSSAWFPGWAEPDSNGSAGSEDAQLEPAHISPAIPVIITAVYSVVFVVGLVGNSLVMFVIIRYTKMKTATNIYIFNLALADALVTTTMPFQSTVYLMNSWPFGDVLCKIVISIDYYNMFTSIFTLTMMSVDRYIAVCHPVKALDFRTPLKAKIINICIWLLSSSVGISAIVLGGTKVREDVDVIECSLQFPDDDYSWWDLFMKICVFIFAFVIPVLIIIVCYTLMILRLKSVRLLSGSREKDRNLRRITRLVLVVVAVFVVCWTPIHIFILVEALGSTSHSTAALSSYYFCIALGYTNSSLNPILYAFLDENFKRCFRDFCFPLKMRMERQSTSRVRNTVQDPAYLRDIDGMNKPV
UniProt P14780, sequence (whole entry, looked up): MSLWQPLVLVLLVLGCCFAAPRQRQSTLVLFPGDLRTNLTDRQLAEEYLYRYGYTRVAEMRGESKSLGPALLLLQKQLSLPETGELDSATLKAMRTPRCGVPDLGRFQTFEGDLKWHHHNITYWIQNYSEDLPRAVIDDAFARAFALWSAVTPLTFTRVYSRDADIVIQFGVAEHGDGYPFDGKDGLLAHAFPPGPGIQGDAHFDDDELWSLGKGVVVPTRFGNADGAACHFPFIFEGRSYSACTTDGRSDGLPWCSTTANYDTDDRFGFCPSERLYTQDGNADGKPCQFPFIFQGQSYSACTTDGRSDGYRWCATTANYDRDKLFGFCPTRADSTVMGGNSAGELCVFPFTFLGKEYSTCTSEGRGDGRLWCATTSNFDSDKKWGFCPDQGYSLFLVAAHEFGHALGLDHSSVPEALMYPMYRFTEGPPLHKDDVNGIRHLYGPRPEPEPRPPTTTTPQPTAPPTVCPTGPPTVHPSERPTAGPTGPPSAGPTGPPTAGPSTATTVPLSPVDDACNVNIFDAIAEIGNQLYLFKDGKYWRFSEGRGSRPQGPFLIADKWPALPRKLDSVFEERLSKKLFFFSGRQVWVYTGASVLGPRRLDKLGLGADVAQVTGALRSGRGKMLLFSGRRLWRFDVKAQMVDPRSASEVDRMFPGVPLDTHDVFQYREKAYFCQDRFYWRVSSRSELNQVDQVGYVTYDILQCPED
UniProt P0AFU8, sequence (whole entry, looked up): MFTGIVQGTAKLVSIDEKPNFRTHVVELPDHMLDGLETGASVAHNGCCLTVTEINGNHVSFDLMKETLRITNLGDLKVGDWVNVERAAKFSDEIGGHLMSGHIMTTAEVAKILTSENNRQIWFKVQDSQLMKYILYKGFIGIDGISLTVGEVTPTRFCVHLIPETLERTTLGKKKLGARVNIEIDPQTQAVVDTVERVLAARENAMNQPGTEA

CCOC(=O)OC(=O)OCC
remaining activity (ADH1 (Saccharomyces cerevisiae, UniProt P00330, H49Q); enzyme activity, inactivator; 90 µM, pH 8.0, 30 °C, turnover number): 54 s⁻¹

CC1(C)Oc2cc([C@]34CC5CC(C[C@@](CN=[N+]=[N-])(C5)C3)C4)cc(O)c2[C@@H]2C[C@H](O)CC[C@H]21
covalent labeling (CNR2; radioligand binding Bmax reduction; HEK293 membranes; 10-fold Ki, added: [3H]CP-55,940; baseline: untreated): 60%

CCCCCc1cc(O)c(C/C=C(\C)CCC=C(C)C)c(O)c1
lowest effective concentration (SCN9A (Homo sapiens, UniProt Q15858); slow inactivation, automated patch clamp; baseline: vehicle): 7 µM

SIFDWPR (disulfide (positions not given here)) (cyclic, disulfide)
binding titer (HIV-1 neutralising antibody 4E10; phage binding, M13 phage ELISA; concentration not given; lower = stronger binding): 1.7e+06 M13/mL

AYRHPTGMYY
kcat/Km (PIM1; substrate, coupled enzyme; peptide; pH 7.4, room temperature, added: 1 mM ATP, 20 mM MgCl2): 960 M⁻¹ s⁻¹

COc1cccc2c1C(=O)c1c(O)c3c(c(O)c1C2=O)C[C@@](O)(C(C)=O)C[C@@H]3O[C@H]1C[C@H](N)[C@H](O)[C@H](C)O1
inhibition (SLC22A5 (Homo sapiens, UniProt O76082); transporter uptake, inhibitor; 500 µM): 40.8%

O=C1OC2(c3ccccc31)c1cc(Br)c(O)c(Br)c1Oc1c2cc(Br)c(O)c1Br
kinact/KI (Dual specificity protein phosphatase 5 (Homo sapiens, UniProt Q16690); enzyme inactivation, irreversible inhibitor; 1 mM DTT, added: p-nitrophenyl phosphate): 1 M⁻¹ s⁻¹

Ac-LDEVD-pNA (N-acetyl, C-pNA; pNA = O=[N+]([O-])c1ccc(N*)cc1)
kcat/Km (Caspase-7 (CASP7, Homo sapiens, UniProt P55210); substrate hydrolysis, substrate, colorimetric; pH 7.5): 16700 ± 1670 M⁻¹ s⁻¹

O=C(CCc1cc2ccccc2[nH]1)NC1CCSC1=O (centres unmarked)
activation (lasR; reporter gene, agonist; PAO1 MW1 pUM15; 10 µM, added: OdDHL): > 20%

COCCCn1nc(C(=O)NC(C)(C)c2cccc(C(N)=O)c2)c2ccccc21
Emax (CNR2; calcium mobilization, agonist; CHO-K1 expressing Gαq16; baseline: CP55,940 maximum): 11 ± 7%

KVALGAAGG
fraction of protein bound (Kelch domain-containing protein 2; native mass spectrometry; peptide, 200 mM ammonium acetate; 20 µM Kelch domain-containing protein 2, pH 7; baseline: total Kelch domain-containing protein 2 signal): 1.7%

Nc1ncnc2c1ncn2[C@@H]1O[C@H](CO[P@](=O)(O)O[P@](=O)(O)O[P@@](=O)(O)S)[C@@H](O)[C@H]1O
fluorescence ratio (matB (Rhodopseudomonas palustris, UniProt Q6ND88, C106A/K488A/Q457C/R286C); nucleotide binding; 0.5 µM protein, pH 7.0, 20 °C, 10 mM MgCl2; baseline: saturating ligand over no ligand): 1.9 ± 0.1

Oc1cc(-c2cc(Br)c(-c3ccc(F)c(O)c3)[se]2)ccc1F
efficacy (ESR2; antagonist; HEK293T; highest tested concentration, 24 h, added: estradiol 10 nM; baseline: estradiol alone): 69 ± 16%

GSSFLSPEHQRVQQRKESKKPPAKLQPK-{Gly(Biotin)} (not fully specified; biotin-labelled)
acyl transfer (mouse GOAT H338A; substrate; peptide; 10 µM, 5 min): inactive

TAFEGKLEEIIRSSEGG
fraction of protein bound (Kelch domain-containing protein 2; native mass spectrometry; peptide, 200 mM ammonium acetate; 20 µM Kelch domain-containing protein 2, pH 7; baseline: total Kelch domain-containing protein 2 signal): 1%

NCCCC(=O)O
fluorination plot slope (Drosophila RDL receptor residue 206; log EC50 vs cation-π binding): -0.13

Cc1cc(O)ccc1-c1c[se]cc1-c1ccc(O)cc1C
efficacy (ESR1; antagonist; HEK293T; highest tested concentration, added: estradiol 10 nM; baseline: estradiol alone): 80 ± 10%

CC(C)C[C@H](NC(=O)[C@@H](NC(=O)N[C@H](C(=O)O)C(C)C)[C@@H]1CCNC(=N)N1)C(=O)NCCCN[C@H](C(=O)O)[C@H](O[C@@H]1O[C@H](CN)[C@@H](O)[C@H]1O)[C@H]1O[C@@H](n2ccc(=O)[nH]c2=O)[C@H](O)[C@@H]1O
IC50 ratio (mraY (Aquifex aeolicus, UniProt O66465); enzyme activity, inhibitor, fluorescence; baseline: Aquifex aeolicus over Staphylococcus aureus): ~120 fold

Cc1cc(-c2cc(Br)c(-c3cc(C)c(O)c(C)c3)[se]2)cc(C)c1O
efficacy (ESR2; antagonist; HEK293T; highest tested concentration, 24 h, added: estradiol 10 nM; baseline: estradiol alone): 18 ± 13%

COc1ccc(Oc2ccc(C(=O)N[C@H](CN3CCN(c4cccc(O)c4)[C@@H](C)C3)C(C)C)cc2)cc1
Ke (OPRM1; antagonist; CHO; added: DAMGO): 17 ± 5 nM

SSAIGPYKGG
fraction of protein bound (Kelch domain-containing protein 2; native mass spectrometry; peptide, 200 mM ammonium acetate; 20 µM Kelch domain-containing protein 2, pH 7; baseline: total Kelch domain-containing protein 2 signal): 0.8%

CC1N=C(c2ccccc2F)c2cc(Nc3ccc(O)cc3)ccc2NC1=O (centres unmarked)
inhibition (ADRA2A (Homo sapiens, UniProt P08913); ligand displacement, radioligand; 10 µM): 36%

CCOC(=O)CN(CCN(CCN(CC(=O)O)CC(=O)O)CC(=O)O)CC(=O)O
ligand concentration ratio (americium(III); americium-241 binding, solvent extraction; pH 1.3; baseline: compound over DTPA, higher = weaker binding): 5 fold

Oc1ccccc1-c1cc(Cl)c(Cl)c(Cl)c1Cl
detection limit (Aequorin-1 C152S/C159S/C187S; aequorin bioluminescence, inhibitor; 2 h, added: coelenterazine): 0.34 µM

O=c1[nH]c(/C=C/C2C=Nc3ccccc32)c([N+](=O)[O-])c(=O)[nH]1 (centres unmarked)
Ks (Riboflavin synthase (ribC, Escherichia coli, UniProt P0AFU8); enzyme activity, substrate; Escherichia coli, recombinant riboflavin synthase; pH 7.0): 2.3 ± 0.1 µM

Nc1cccc2c1CN(C1CCC(=O)NC1=O)C2=O (centres unmarked)
IDO1 degradation (IDO1 (Homo sapiens, UniProt P14902); inhibitor, western blot; HeLa; 1 µM, 2 h pretreatment, then 24 h, added: IFN-γ 5 ng/mL plus degrader 5 µM): inhibited

Cc1cc(O)cc(C)c1-c1ccc(-c2c(C)cc(O)cc2C)[se]1
efficacy (ESR2; antagonist; HEK293T; highest tested concentration, 24 h, added: estradiol 10 nM; baseline: estradiol alone): 66 ± 3%

CC(C)(NC(=O)c1nn(Cc2ccc(F)cc2)c2ccccc12)c1cccc(NC(N)=O)c1
Emax (CNR2; calcium mobilization, agonist; CHO-K1 expressing Gαq16; baseline: CP55,940 maximum): 34 ± 2%

O=[PH](O)O
activation energy change (Orotidine 5'-phosphate decarboxylase (Saccharomyces cerevisiae S288c, UniProt P03962, T100A); dianion-activated decarboxylation; baseline: wild type): < 1 kcal/mol and 0.9 kcal/mol

O=C(Cc1ccccc1I)NC1CCOC1=O (centres unmarked)
activation (lasR; reporter gene, agonist; Escherichia coli JLD271/pJN105L/pSC11; 100 µM; baseline: OdDHL 100 µM): -4%

GGNWST
apparent kcat (UDP-glucose:protein N-beta-glucosyltransferase (Actinobacillus pleuropneumoniae serotype 5b, UniProt A3N2T3, D215R/Q469A); substrate; peptide; 15 min, pH 8.0, 37 °C, D215R mutant, added: UDP-Glc 100 mM): 0.07 ± 0.01 s⁻¹

Oc1cccc(-c2cc(Cl)ccc2Cl)c1O
detection limit (Aequorin-1 C152S/C159S/C187S; aequorin bioluminescence, inhibitor; 2 h, added: coelenterazine): 132 µM

RYRHPTRMYY
kcat (PIM1; substrate, coupled enzyme; peptide; pH 7.4, room temperature, added: 1 mM ATP, 20 mM MgCl2): 7.5 ± 0.1 s⁻¹

O=C(O[C@@H]1Cc2c(O)cc(O)cc2O[C@@H]1c1cc(O)c(O)c(O)c1)c1cc(O)c(O)c(O)c1
IC50 ratio (KDM4E (Homo sapiens, UniProt B2RXH2); inhibitor, FDH-coupled; baseline: 20 µM over 2.5 µM ferrous ammonium sulfate): 5

YKKRLTVELT
kcat/Km (PAK4 (Homo sapiens, UniProt O96013); kinase activity, substrate; peptide): 9 ± 6 M⁻¹ s⁻¹

DMRSIFHDNPFN
binding titer (HIV-1 neutralising antibody 4E10; phage binding, M13 phage ELISA; peptide; concentration not given; lower = stronger binding): 2.7e+07 M13/mL

COc1ccccc1Oc1ccc(C(=O)N[C@H](CN2CCN(c3cccc(O)c3)[C@@H](C)C2)C(C)C)cc1
Ke (OPRM1; antagonist; CHO; added: DAMGO): 127 ± 78 nM

O=C1C=CC(=O)C=C1
NAD(P)H oxidation rate (Enoyl-ACP reductase (Thermus thermophilus, UniProt P83818); substrate, steady-state turnover): increased

COc1cc2cc(c1Cl)N(C)C(=O)C[C@H](OC(=O)[C@H](C)N(C)C(C)=O)[C@]1(C)O[C@H]1[C@H](C)[C@@H]1C[C@@](O)(NC(=O)O1)[C@H](OC)/C=C/C=C(\C)C2
near-complete inhibition conc. (Tubulin beta chain (Bos taurus, UniProt Q6B856); microtubule polymerization; 30 °C): 3 µM

CC(C)C[C@H](NC(=O)CNC(=O)[C@H](CC(C)C)NC(=O)[C@@H]1CCCN1C(=O)Cc1ccc2ccc3cccc4ccc1c2c34)C(=O)N[C@@H](CCCNC(=N)N)C(=O)N[C@@H](CO)C(=O)N[C@@H](CCCCN)C(=O)O
hydrolysis product (MMP9 (Homo sapiens, UniProt P14780); substrate, HPLC; 500 µM, 72 h, pH 7.5, 37 °C): 59%

COc1ccc2c3c1O[C@H]1C[C@@H](O)C=C[C@@]31CCN(C)C2
remaining activity (CES1 (Homo sapiens, UniProt P23141); irreversible inhibitor; 5× IC50 or 200 µM, 1 h, preincubation then inhibitor removal, added: o-nitrophenyl acetate substrate): 0%

CC[C@H](C)[C@H](NC(=O)[C@@H]1CSSC[C@@H]2NC(=O)[C@H]([C@@H](C)O)NC(=O)[C@H](C(C)C)NC(=O)CNC(=O)[C@H](CC(N)=O)NC(=O)[C@@H](NC(=O)[C@@H]3CCCN3C(=O)[C@H](CC(N)=O)NC(=O)[C@H](CC(N)=O)NC(=O)[C@H](CC(C)C)NC(=O)[C@H](Cc3ccc(O)cc3)NC(=O)[C@H](CCCCN)NC(=O)[C@H](CO)NC(=O)[C@@H](N)CC(N)=O)CSSC[C@H](NC(=O)[C@H](CCCNC(=N)N)NC(=O)[C@H](Cc3ccc(O)cc3)NC(=O)CNC(=O)[C@H](CO)NC(=O)[C@@H]3CCCN3C2=O)C(=O)N[C@@H](CO)C(=O)N[C@@H]([C@@H](C)CC)C(=O)N[C@@H](C(C)C)C(=O)N[C@@H](CC(=O)O)C(=O)N[C@@H](CCCCN)C(=O)N[C@@H](CCC(N)=O)C(=O)N1)C(=O)N[C@@H](CCCCN)C(=O)N[C@@H](CCCCN)C(=O)N[C@@H](CCC(=O)O)C(=O)O
single-channel conductance (Trpv1 (Mus musculus, UniProt Q704Y3, E571A); agonist, outside-out patch; 300 µM, before desensitisation): 154 ± 10.8 pS

Cc1cc(-c2cc(-c3cc(C)c(O)c(C)c3)c(-c3cc(C)c(O)c(C)c3)[se]2)cc(C)c1O
efficacy (ESR1; antagonist; HEK293T; highest tested concentration, added: estradiol 10 nM; baseline: estradiol alone): 27 ± 1%

CN(C)c1cccc2c(S(=O)(=O)N[C@@H](CCC(=O)O)C(=O)N[C@@H](CC(N)=O)C(=O)N[C@@H](CCC(N)=O)C(=O)N[C@@H](CCCCN)C(=O)N[C@@H](CCC(=O)O)C(=O)N[C@@H](Cc3ccc(O)cc3)C(=O)N[C@@H](Cc3ccccc3)C(=O)N[C@@H](Cc3ccccc3)C(=O)O)cccc12
binding affinity fold change (Rho guanine nucleotide exchange factor TIAM1, PDZ domain (TIAM1, Homo sapiens, UniProt Q13009); fluorescence anisotropy; concentration not given, dansylated peptide; baseline: model peptide Kd over peptide Kd): 6.7

Oc1ccc(F)c(-c2ccc(-c3cc(O)ccc3F)[se]2)c1
efficacy (ESR1; antagonist; HEK293T; highest tested concentration, added: estradiol 10 nM; baseline: estradiol alone): 75 ± 7%

SHPQFEKGGGSGGG
fraction of protein bound (Kelch domain-containing protein 2; native mass spectrometry; peptide, 200 mM ammonium acetate; 20 µM Kelch domain-containing protein 2, pH 7; baseline: total Kelch domain-containing protein 2 signal): 3.7%

Cc1cccc(Oc2ccc(C(=O)N[C@H](CN3CCN(c4cccc(O)c4)[C@@H](C)C3)C(C)C)cc2)c1
Ke (OPRK1 (Homo sapiens, UniProt P41145); antagonist; CHO; added: U69593): 0.17 ± 0.04 nM

Repeated from above:
KVALGAAGG
fraction of protein bound (Kelch domain-containing protein 2; native mass spectrometry; peptide, 200 mM ammonium acetate; 20 µM Kelch domain-containing protein 2, pH 7; baseline: total Kelch domain-containing protein 2 signal): 1.7%

COc1ccc(Oc2ccc(C(=O)N[C@H](CN3CCN(c4cccc(O)c4)[C@@H](C)C3)C(C)C)cc2)cc1
Ke (OPRM1; antagonist; CHO; added: DAMGO): 17 ± 5 nM

Cc1cc(-c2cc(-c3cc(C)c(O)c(C)c3)c(-c3cc(C)c(O)c(C)c3)[se]2)cc(C)c1O
efficacy (ESR1; antagonist; HEK293T; highest tested concentration, added: estradiol 10 nM; baseline: estradiol alone): 27 ± 1%
